Measurements from different studies.
Parts stem from different laboratories: compare values within a part only. Substitutions count along the parent as printed.

Sample 1
Target: Ras GTPase-activating protein-binding protein 1, RRM domain (G3BP1, Homo sapiens, UniProt Q13283)
Sequence of UniProt Q13283 (whole entry, looked up): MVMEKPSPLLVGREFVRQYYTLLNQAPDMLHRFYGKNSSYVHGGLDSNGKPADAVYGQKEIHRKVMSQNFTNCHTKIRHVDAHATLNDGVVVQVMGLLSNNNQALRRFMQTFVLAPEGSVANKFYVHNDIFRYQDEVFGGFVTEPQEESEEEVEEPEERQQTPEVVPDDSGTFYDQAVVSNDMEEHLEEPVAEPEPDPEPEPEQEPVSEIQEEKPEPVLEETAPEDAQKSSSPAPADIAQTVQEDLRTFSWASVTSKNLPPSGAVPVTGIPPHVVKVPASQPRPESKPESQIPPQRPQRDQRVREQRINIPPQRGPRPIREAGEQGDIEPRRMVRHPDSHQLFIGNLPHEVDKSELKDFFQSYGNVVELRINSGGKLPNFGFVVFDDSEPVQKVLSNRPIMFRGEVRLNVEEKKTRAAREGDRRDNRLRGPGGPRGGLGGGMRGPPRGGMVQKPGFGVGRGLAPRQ
Method: RNA Bind-n-Seq
Molecule type: RNA
Medium: in vitro
Tested at: 1 µM
Notes: whole 134-nt RNA, ends assumed
With: 150 mM KCl
Relative to: input library
Reading: higher = stronger binding
Measurement: log2 enrichment
Oligonucleotide = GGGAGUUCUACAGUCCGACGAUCAAGUCCUGUGCUACACAUCGUAUGUACCGAAUCGGGAAAAAAAGGGAGGGAAAGGGAAAGUAUUAUGUUACGCCGUUCGGAUCUGCACUUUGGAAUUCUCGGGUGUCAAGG; result = 0.539
Oligonucleotide = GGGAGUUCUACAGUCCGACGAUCUGGAGCUGAAGAGCCAAGAGGCUCCGAGUCUGCAGCAGCAGCCAGACCAGUACCUGGAGCCCCAGUCCCACAAGGAGCUUGGAUGUGCGGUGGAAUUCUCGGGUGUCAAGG; result = -0.371
Oligonucleotide = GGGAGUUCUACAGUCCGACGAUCUCAAGUCCUGUGCUACACAUCGUAUGUACCGAAUCGGGUGGGAAAGGGUUUGGGAAAGUAUUAUGUUACGCCGUUCGGAUCUGCACUUCCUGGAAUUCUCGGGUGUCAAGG; result = 0.668
Oligonucleotide = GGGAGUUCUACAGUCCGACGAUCUCUAUGUAGCAUCCAGGUACUACUUCCUUUGGAAUGUCAGUAUUUAAUCUGAGCAAUGCGAUUGUGGGCAGUGGAAUCCUUGGGCUUUCUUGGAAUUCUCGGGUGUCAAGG; result = -0.133
Oligonucleotide = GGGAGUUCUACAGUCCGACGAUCUGAUGAUAGUAGCAGAGAAGAUGAACAUACACAUACUAACAGUGUCACGAACUCCAGUAGUAUUGUGGACCUGCCCGUUCACCAACUCUCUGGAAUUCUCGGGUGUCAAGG; result = 0.049
Oligonucleotide = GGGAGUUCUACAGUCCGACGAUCAGUCCUGUGCUACACAUCGUAUGUACCGAAUCGGUUUUGGGUUUUGGGGUUUUGGGGAAAGUAUUAUGUUACGCCGUUCGGAUCUGCACUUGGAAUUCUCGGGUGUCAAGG; result = -0.153
Oligonucleotide = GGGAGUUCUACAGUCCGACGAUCCUGUGCUACACAUCGUAUGUACCGAAUCGGGUUUUUUUGGGGUUUUUUUGGUUUUUUUGGGGAAAGUAUUAUGUUACGCCGUUCGGAUCUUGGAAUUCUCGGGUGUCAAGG; result = -0.258
Oligonucleotide = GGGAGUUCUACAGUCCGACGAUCCACAGACAACACGCACCCACACAGACACAGAGGGAAGGGGUUGGGAUGGGGACAGGGUGCACAGCAAGGCGGGGUAGGACCCCAGCCCCUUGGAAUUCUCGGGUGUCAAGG; result = 0.0375
Oligonucleotide = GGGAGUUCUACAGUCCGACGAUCCAAGUCCUGUGCUACACAUCGUAUGUACCGAAUCGGGUGGGUUUUUUUGGGUGGGAAAGUAUUAUGUUACGCCGUUCGGAUCUGCACUUCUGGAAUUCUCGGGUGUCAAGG; result = 0.531
Oligonucleotide = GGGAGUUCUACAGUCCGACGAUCUGUGCUACACAUCGUAUGUACCGAAUCGGGGAAAAAAAGGGGAAAAAAAGGGGAAAAAAAGGAAAGUAUUAUGUUACGCCGUUCGGAUCUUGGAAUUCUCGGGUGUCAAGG; result = 0.0907
Oligonucleotide = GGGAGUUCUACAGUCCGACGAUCGUCCUGUGCUACACAUCGUAUGUACCGAAUCGGGGUUUUUUUGGGGUUUGGGGAGGGGAAAGUAUUAUGUUACGCCGUUCGGAUCUGCACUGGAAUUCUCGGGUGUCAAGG; result = 0.863
Oligonucleotide = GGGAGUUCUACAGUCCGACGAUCAGUCCUGUGCUACACAUCGUAUGUACCGAAUCGGGGAAAAGGAAAAGGGAAAAGGGGAAAGUAUUAUGUUACGCCGUUCGGAUCUGCACUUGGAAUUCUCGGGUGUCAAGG; result = -0.176
Oligonucleotide = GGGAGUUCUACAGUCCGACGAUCAAGUCCUGUGCUACACAUCGUAUGUACCGAAUCGGAAAAAGGAAAAAAAGGUUUGGAAAGUAUUAUGUUACGCCGUUCGGAUCUGCACUUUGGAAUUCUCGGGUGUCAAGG; result = -0.195
Oligonucleotide = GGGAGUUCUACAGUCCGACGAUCCACAGACAACACGCACCCACACAGACACAGAGGGAAGGGGUUGGGAAAAGGACAGGGUGCACAGCAGGGCGGGGUAGGACCCCAGCCCCUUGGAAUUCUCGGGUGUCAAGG; result = -0.0348

Sample 2
Target: ABI1, truncated, D143A, DHFR fusion (Arabidopsis thaliana)
Method: DHFR PCA, deep sequencing
Medium: yeast
Notes: methotrexate growth selection, single substitutions
With: (+)-ABA 0.11 µM
Relative to: wild-type fitted maximum
Reading: higher = stronger binding
Measurement: relative binding score
Starting sequence: PYL1, truncated, DHFR fusion (Arabidopsis thaliana); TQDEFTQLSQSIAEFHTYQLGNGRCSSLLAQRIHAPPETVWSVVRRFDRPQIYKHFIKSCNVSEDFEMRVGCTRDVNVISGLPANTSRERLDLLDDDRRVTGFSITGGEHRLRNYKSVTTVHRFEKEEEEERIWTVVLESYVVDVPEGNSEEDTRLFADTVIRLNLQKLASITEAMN
Variant = F157S; result = 6.03%
Variant = V145M; result = -10.6%
Variant = P37F; result = 3.03%
Variant = S80F; result = 60%
Variant = T86Q; result = 11.3%
Variant = Q167E; result = 40.7%
Variant = L94M; result = 14.1%
Variant = T73S; result = 8.93%

Sample 3
Target: CCNA1, cyclin fold, Cln2 fusion (human)
Method: yeast growth competition, sequencing
Medium: yeast
Notes: weak parent motif
Relative to: not given
Reading: higher = stronger binding
Measurement: normalised enrichment score
Starting sequence: PKN2 docking peptide (human); VSAVQKLDFSDTM; partner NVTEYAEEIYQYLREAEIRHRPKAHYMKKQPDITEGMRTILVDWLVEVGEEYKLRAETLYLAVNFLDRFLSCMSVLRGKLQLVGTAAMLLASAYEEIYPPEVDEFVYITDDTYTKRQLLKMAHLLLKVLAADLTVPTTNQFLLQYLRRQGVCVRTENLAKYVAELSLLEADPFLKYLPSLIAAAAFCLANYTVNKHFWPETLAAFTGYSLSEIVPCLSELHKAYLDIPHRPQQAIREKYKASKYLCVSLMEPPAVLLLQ
Variant = VSAVQKGDFSDTM [L7G]; result = 0.198
Variant = VSAVQKFDFSDTM [L7F]; result = 0.539
Variant = VSPVQKLDFSDTM [A3P]; result = 0.245
Variant = VSAEQKLDFSDTM [V4E]; result = 0.485
Variant = VSAVQKLDFMDTM [S10M]; result = 0.473
Variant = VQAVQKLDFSDTM [S2Q]; result = 0.407
Variant = VSAVQKLDTSDTM [F9T]; result = 0.138
Variant = VTAVQKLDFSDTM [S2T]; result = 0.303
Variant = VSAVQKLPFSDTM [D8P]; result = 0.387
Variant = VSAVQKLDFSDEM [T12E]; result = 0.444
Variant = VSAIQKLDFSDTM [V4I]; result = 0.193
Variant = VAAVQKLDFSDTM [S2A]; result = 0.469
Variant = VSFVQKLDFSDTM [A3F]; result = 0.0883

Mixed results
Molecule = PhoQ, residues 284 288 289 292 302 303 SLSLLA; target = PhoP, residues 12 14 15 18 19 IFFTR (Escherichia coli, UniProt P23836); test = Sort-seq, item: YFP reporter; system = E. coli; conditions = PhoQ-PhoP variant library, with: 10 µM Mg2+; scale = relative to: high Mg2+ state, higher = stronger signaling; measurement = fold induction; result = 9.81
